Results pooled from the literature.
Each numbered part is a random draw from the data of one study; scales do not carry over between parts.

Series 1
Target: Sal-like protein 4, full length isoform B (SALL4, Homo sapiens, UniProt Q9UJQ4-2, residues 1-616)
Technique: universal PBM
Form: double-stranded DNA, one strand shown
Medium: in vitro
Concentration: not given
Notes: 8-mer, flanks averaged, mean of replicates
Reading: higher = stronger binding
Sequence | E-score
AACCCGGA | -0.324
AATTCGGT | -0.00993
ACGCAACA | 0.0996
ATTCGGTA | 0.142
GGCGTATA | 0.0163
AACTCCCT | -0.0114
ATAAGGTG | 0.172
AGTATAAA | 0.357
ACAGTGGA | -0.00295
GCCGCTCA | -0.248
AGACTCGA | -0.0136
AGTAATAA | 0.397
CCGCGCGC | -0.324
AGTGAAAT | 0.184
GGCCCCCA | -0.296
AGCCAAAT | -0.0444
AGTCGGTC | -0.194
AGACTGAG | -0.147
GCACATAC | -0.0185
ACAGACGA | -0.0922
GAAGTAGA | 0.00785
AGGGGACT | -0.14
ACCATCCT | 0.161
ACCCAGGC | -0.306

Series 2
Target: Hepatocyte nuclear factor 3-beta, forkhead domain (FOXA2, Homo sapiens, UniProt Q9Y261, residues 142-269)
Technique: protein-binding microarray
Form: double-stranded DNA, one strand shown
Medium: in vitro
Concentration: not given
Notes: k-mer, scored over probes, only values ≥0.25
Reading: higher = stronger binding
Target sequence (chain): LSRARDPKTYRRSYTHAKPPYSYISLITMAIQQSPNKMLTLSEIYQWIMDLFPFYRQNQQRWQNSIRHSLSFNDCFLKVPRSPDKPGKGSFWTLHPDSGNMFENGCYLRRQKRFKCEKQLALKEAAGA
Sequence | E-score
AGTGTATA | 0.373
GGAAATAA | 0.265
ATCTATTA | 0.266
CAAACACG | 0.268
GACAAATA | 0.395
TAAACAAA | 0.299
GTATCTCA | 0.301
CTTTACTA | 0.258
TTAAAGAA | 0.256
AATAAAAC | 0.263
CTATAACA | 0.255
AAACATGT | 0.291
CATGTTAA | 0.281
ATATGAAT | 0.36
CTGATTAC | 0.253
ATCACATC | 0.254
CACATATA | 0.387
AACTGTGT | 0.259
ATTACATC | 0.273
TATATGGA | 0.295
ATAATTAT | 0.359
TATACCAA | 0.284

Series 3
Target: Ras GTPase-activating protein-binding protein 1, full length (G3BP1, Homo sapiens, UniProt Q13283)
Sequence of UniProt Q13283 (whole entry, looked up): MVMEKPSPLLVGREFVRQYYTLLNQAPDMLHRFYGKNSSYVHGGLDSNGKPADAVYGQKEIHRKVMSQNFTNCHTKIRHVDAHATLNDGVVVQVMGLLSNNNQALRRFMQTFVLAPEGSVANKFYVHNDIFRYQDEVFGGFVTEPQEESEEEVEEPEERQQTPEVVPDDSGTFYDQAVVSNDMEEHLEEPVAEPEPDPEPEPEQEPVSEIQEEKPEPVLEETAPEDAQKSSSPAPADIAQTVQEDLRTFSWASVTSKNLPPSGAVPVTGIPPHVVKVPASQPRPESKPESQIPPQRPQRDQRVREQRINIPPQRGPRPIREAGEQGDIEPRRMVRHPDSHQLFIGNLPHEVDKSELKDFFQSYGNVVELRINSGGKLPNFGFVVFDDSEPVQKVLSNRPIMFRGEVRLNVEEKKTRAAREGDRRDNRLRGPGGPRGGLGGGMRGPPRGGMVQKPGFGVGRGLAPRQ
Technique: RNA Bind-n-Seq
Form: RNA
Medium: in vitro
Concentration: 200 nM
Notes: whole 134-nt RNA, ends assumed
Added: 150 mM KCl
Relative to: input library
Reading: higher = stronger binding
All sequences stand within: GGGAGUUCUACAGUCCGACGAUC … UGGAAUUCUCGGGUGUCAAGG
Sequence | log2 enrichment
CCUCAAGUCCUGUGCUACACAUCGUAUGUACCGAAUCGGGGUGGGUGGGUGGGAAAGUAUUAUGUUACGCCGUUCGGAUCUGCACUUCCA | -0.00319
UGGGAGGUGGAUUUUGUUUAUUUUUUUAGCUCAUUUCCAGGGGUGGGAAUUUUUUUUUAUUAUGUGUCAUGAAUAAAGUUGUUUUUGAAA | 0.25
CAAGUCCUGUGCUACACAUCGUAUGUACCGAAUCGGGGUUUGGUUUGGUUUGGGGAAAGUAUUAUGUUACGCCGUUCGGAUCUGCACUUC | -0.207
CACAGACAACACGCACCAACACAGACACAGAGGGAAGGGGUUGGGAUGGGGACAGGGUGCACAGCAGGGCGGGGUAGGACCCCAGCCCCU | 1.69
ACCAUGCAGGUGGGCAUCUUUGGGAAGUGGGGCAAGCGGGGGAUAGGGAGGGGGGUAACACUUUGGGAACAGGUGGUCCCAGGUCGUUUC | 1.16
UGUGCUACACAUCGUAUGUACCGAAUCGGGGUUUUUGGGGAAAAAAAGGGGUUUUUUUGGGGAAAGUAUUAUGUUACGCCGUUCGGAUCU | -0.118
CUCAAGUCCUGUGCUACACAUCGUAUGUACCGAAUCGGCCCGGCCCGGGCCCGGAAAGUAUUAUGUUACGCCGUUCGGAUCUGCACUUCC | -0.929
AGUCCUGUGCUACACAUCGUAUGUACCGAAUCGGGGAGGGGUUUGGGGAAAAAGGGGAAAGUAUUAUGUUACGCCGUUCGGAUCUGCACU | 0.398
GUCCUGUGCUACACAUCGUAUGUACCGAAUCAAAUUUAAACCCCCAAACCCCCCCAAAAAAGUAUUAUGUUACGCCGUUCGGAUCUGCAC | -0.213

Series 4
Target: Interferon regulatory factor 7, full length, phosphomimetic (IRF7, Homo sapiens, UniProt Q92985, residues 1-503, S471D/S472D/S475D/S476D/S477D/S483D/S484D/S487D)
Sequence of UniProt Q92985 (whole entry, unmodified, looked up): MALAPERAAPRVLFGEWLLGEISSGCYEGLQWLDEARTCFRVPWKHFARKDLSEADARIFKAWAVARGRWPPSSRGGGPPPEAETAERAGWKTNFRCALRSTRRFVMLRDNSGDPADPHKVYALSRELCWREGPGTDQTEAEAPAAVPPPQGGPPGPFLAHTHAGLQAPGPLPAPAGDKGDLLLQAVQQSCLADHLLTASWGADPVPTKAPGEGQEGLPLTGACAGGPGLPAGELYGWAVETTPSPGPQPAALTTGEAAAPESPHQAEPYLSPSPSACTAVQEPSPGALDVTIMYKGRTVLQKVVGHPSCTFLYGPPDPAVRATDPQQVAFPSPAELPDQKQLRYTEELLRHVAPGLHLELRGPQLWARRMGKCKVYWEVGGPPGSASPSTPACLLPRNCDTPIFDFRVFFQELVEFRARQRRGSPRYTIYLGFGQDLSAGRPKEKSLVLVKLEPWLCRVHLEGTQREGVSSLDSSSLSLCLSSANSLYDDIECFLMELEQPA
Technique: protein-binding microarray
Form: double-stranded DNA, one strand shown
Medium: in vitro
Concentration: 2200 nM top
Notes: 60-bp whole probe
Added: salmon DNA 0.4 mg/ml
Relative to: random background probes
Reading: higher = stronger binding
All sequences stand within: GCCTAGCAC … GTCTTGATTCGCTTGACGCTGCTG
Sequence | fitted relative affinity [z-score]
TTATATATCGGGTATCGATTAGTGCTA | 0.382
TTAGGACTGCTACTGCGTTAGTGCTAG | -0.331
TTAGGTTTCGGGTTCCGGTTAGTGCTA | 10.2
TCAGCTCTAGGTTCTCTGACTGTGCTA | 0.181
TTAGATCTCAGTATCTATTAGTGCTAG | 0.307
TCATTTCTCATTCGTCATACTGTGCTA | 3.14
CACGGTCTCGGACTGGGGACGTGCTAG | -0.364
TTAGGACTGGACACTGGGTTAGTGCTA | -0.651
CACGGACTGGGACTGGGGACGTGCTAG | -0.83
GACGGTATCGGTATAGGGACGTGCTAG | 0.17
TGTGGCTTAGCTGTCACCTCGTGCTAG | 0.0861
GACGGTTTCGGGACTGGAGACGTGCTA | 3.52
TTAGGTATCGGCTATCGGTTAGTGCTA | 0.342
ATAGGTCTCGGTATCGGTTAGTGCTAG | 1.09
CTTTCTCCCAAGTCTTGTTTTGTGCTA | 1.8
GACGGTTTCGGACTGGGTACGTGCTAG | 3.81
TTAGGAATGGGGTTTCGGTTAGTGCTA | 3.27
CTAGTTTCCATTTTCAGAATGTGCTAG | 8.15
TTCGGTTTCGGGACTGGGTTAGTGCTA | 5.77

Further values, each from its own experiment
Technique: cross-linking MS
Medium: cell fractions
Added: DSSO
Substance | partner | cross-linked residues
FBL (Homo sapiens, UniProt P22087) | HAUS7 (Homo sapiens, UniProt Q99871) | K131 to S62
UBE2O (Homo sapiens, UniProt Q9C0C9) | PSAT1 (Homo sapiens, UniProt Q9Y617) | K801 to K363
SF3A3 (Homo sapiens, UniProt Q12874) | SF3B3 (Homo sapiens, UniProt Q15393) | K496 to K974
NOP14 (Homo sapiens, UniProt P78316) | BYSL (Homo sapiens, UniProt Q13895) | K238 to K242

For quick reference, copied from above (series 3):
Sequence | log2 enrichment
CCUCAAGUCCUGUGCUACACAUCGUAUGUACCGAAUCGGGGUGGGUGGGUGGGAAAGUAUUAUGUUACGCCGUUCGGAUCUGCACUUCCA | -0.00319
CAAGUCCUGUGCUACACAUCGUAUGUACCGAAUCGGGGUUUGGUUUGGUUUGGGGAAAGUAUUAUGUUACGCCGUUCGGAUCUGCACUUC | -0.207
UGUGCUACACAUCGUAUGUACCGAAUCGGGGUUUUUGGGGAAAAAAAGGGGUUUUUUUGGGGAAAGUAUUAUGUUACGCCGUUCGGAUCU | -0.118
CUCAAGUCCUGUGCUACACAUCGUAUGUACCGAAUCGGCCCGGCCCGGGCCCGGAAAGUAUUAUGUUACGCCGUUCGGAUCUGCACUUCC | -0.929
UGGGAGGUGGAUUUUGUUUAUUUUUUUAGCUCAUUUCCAGGGGUGGGAAUUUUUUUUUAUUAUGUGUCAUGAAUAAAGUUGUUUUUGAAA | 0.25
ACCAUGCAGGUGGGCAUCUUUGGGAAGUGGGGCAAGCGGGGGAUAGGGAGGGGGGUAACACUUUGGGAACAGGUGGUCCCAGGUCGUUUC | 1.16
AGUCCUGUGCUACACAUCGUAUGUACCGAAUCGGGGAGGGGUUUGGGGAAAAAGGGGAAAGUAUUAUGUUACGCCGUUCGGAUCUGCACU | 0.398
CACAGACAACACGCACCAACACAGACACAGAGGGAAGGGGUUGGGAUGGGGACAGGGUGCACAGCAGGGCGGGGUAGGACCCCAGCCCCU | 1.69
GUCCUGUGCUACACAUCGUAUGUACCGAAUCAAAUUUAAACCCCCAAACCCCCCCAAAAAAGUAUUAUGUUACGCCGUUCGGAUCUGCAC | -0.213
